Measurements of several laboratories.
Lines come from different studies, so protocols differ. Numbers after ± are the reported error.
CTSL: Procathepsin L (CTSL, Homo sapiens, UniProt P07711)
KDR: Vascular endothelial growth factor receptor 2 (KDR, Homo sapiens, UniProt P35968)

Compound	target	test	test system	setting	IC50 [µM]
Oc1c(C(Nc2nccs2)c2cccc(OCc3ccccc3)c2)ccc2cccnc12 (centres unmarked)	Genome polyprotein, NS2B-NS3 protease (Dengue virus type 2, UniProt P14340)	enzyme activity, inhibitor	–	0.1% CHAPS, with: Bz-Nle-Lys-Arg-Arg-AMC substrate	2.93 ± 0.07
COc1ccc(C2Sc3ccccc3NC3=C2C(=O)c2ccccc23)cc1 (racemic)	Cytochrome b (MT-CYB, Homo sapiens, UniProt P00156)	enzyme activity, inhibitor	–	–	> 5
CC(=O)N[C@@H](Cc1c[nH]c2ccccc12)C(=O)N[C@@H](Cc1c[nH]c2ccccc12)C(=O)N[C@@H](Cc1c[nH]c2ccccc12)C(=O)N[C@@H](Cc1c[nH]c2ccccc12)C(=O)N[C@@H](Cc1c[nH]c2ccccc12)C(=O)N[C@@H](Cc1c[nH]c2ccccc12)C(=O)NCCCC[C@@H]1NC(=O)[C@H](CCCNC(=N)N)NC(=O)[C@H](CCCNC(=N)N)NC(=O)[C@H](CCCNC(=N)N)NC(=O)[C@H](CCCNC(=N)N)NC(=O)[C@H](CCCNC(=N)N)NC(=O)[C@H](CCCNC(=N)N)NC1=O	Cyclin-dependent kinase 2, with cyclin A1 (CDK2, Homo sapiens, UniProt P24941)	enzyme activity, inhibitor	–	–	1.27
O=C1CC(c2ccc(OC3OC(CO)C(O)C(O)C3O)cc2)Oc2cc(O)cc(O)c21 (centres unmarked)	MAL12 (Saccharomyces cerevisiae S288c, UniProt P53341)	enzyme activity, inhibitor, absorbance	–	–	> 100
C=CC(=O)NCc1ccc(C(=O)Nc2nc(-c3ccc4c(c3)CCC4)cs2)cc1	GCLC/GCLM (Homo sapiens, UniProt P48506+P48507)	enzyme activity, inhibitor	–	30 min preincubation, 37 °C	8.9
COc1cc2ncnc(Oc3ccc(Nc4nccc5[nH]cc(-c6cccc(F)c6)c(=O)c45)cc3F)c2cc1OC	MET (Homo sapiens, UniProt P08581)	HGF-induced autophosphorylation, inhibitor, ELISA	MKN-45	–	0.601
O=C(O)CCC(=O)NNC(=O)c1ccccc1	Egl nine homolog 1 (EGLN1, Homo sapiens, UniProt Q9GZT9)	inhibitor, AlphaScreen	–	bimodal curve, rough estimate, with: 2 µM 2-oxoglutarate	> 300
CCn1c(-c2cc(NC(=O)c3cnccn3)n[nH]2)cc2ccc(OC)cc21	CSNK2A2 (Homo sapiens, UniProt P19784)	enzyme activity, inhibitor, ADP detection	–	–	2.6
CC(C)(F)CCN(Cc1ccc(F)cc1)c1nc(C#N)nc(N2CCOCC2)n1	CTSL	enzyme activity, inhibitor, fluorescence	–	–	0.026
COc1ccccc1C(=O)Nc1cccc(-c2nc3ncccc3o2)c1	Nucleoside transporter 1 (Plasmodium vivax, UniProt A5K8B0)	[3H]adenosine uptake	target-expressing yeast	–	0.0052 ± 0.0026
COc1cc2nccc(Oc3ccc(NC(=S)NCc4cccnc4)c(Cl)c3)c2cc1C(N)=O	PDGFRB (Homo sapiens, UniProt P09619)	–	–	–	0.037
COCC1CN(C2CCN(c3cc(OC)c(Nc4ncc(Br)c(Nc5ccc6c(c5P(C)(C)=O)OCCO6)n4)cc3C)CC2)C1	EGFR (Homo sapiens, UniProt P00533, C797S/L858R/T790M)	enzyme activity, inhibitor, TR-FRET	–	–	< 0.0015
CCOC(=O)c1cc2cc3cc(Br)ccc3nc2s1	PTPN11 (Homo sapiens, UniProt Q06124)	enzyme activity, inhibitor, fluorescence	–	–	7.84
O=c1c2ccccc2sn1Cc1ccccc1	HDAC10 (Homo sapiens, UniProt Q969S8)	enzyme activity, inhibitor	–	–	> 10
CCOC(=O)c1c(N)sc2c1CCN(Cc1ccccc1)C2	Carbamate kinase (Giardia intestinalis, UniProt A8BB85)	enzyme activity, ATP luminescence	–	–	10.3
Cn1c(=O)c2c(nc(CN3CCN(C(=O)C4CC4)CC3)n2Cc2ccccc2F)n(C)c1=O	ALDH1A1 (Homo sapiens, UniProt P00352)	–	–	–	0.39 ± 0.073
COc1cccc(CN(CCC(C)C)c2nc(C#N)nc(N3CCOCC3)n2)c1	CTSL	enzyme activity, inhibitor, fluorescence	–	–	0.006
CCCCOC(=O)NS(=O)(=O)c1sc(CC(C)C)cc1-c1ccc(F)c(Cn2ccnc2)c1	AGTR2 (Homo sapiens, UniProt P50052)	ligand displacement in cells	–	–	0.217

Compound	target	test	test system	setting	IC50 [µM]
C[C@@]12CC[C@@H]3c4ccc(O)c(I)c4CC[C@H]3[C@@H]1CCC2=O	AKR1C3 (Homo sapiens, UniProt P42330)	enzyme activity, inhibitor, absorbance	–	pH 9	12.3
Cc1ccc(NC(=O)CNS(=O)(=O)c2nc(-c3ccc(OC(F)(F)F)cc3)cc(C(F)(F)F)n2)cc1	WRN (Homo sapiens, UniProt Q14191)	ATPase activity, inhibitor, ADP-Glo	–	with: ATP 1 mM	0.894
COc1ccc(Nc2nc(N)c(C(C)=O)s2)cc1	GSK3 (Trypanosoma brucei, UniProt Q388M1)	enzyme activity, inhibitor, radiometric	–	–	1
CC(C)(C)NCCCNC(=O)c1ccnc(Br)c1	Chromobox protein homolog 7 (Homo sapiens, UniProt O95931)	methyl-lysine reader binding, inhibitor, AlphaScreen	–	–	> 100
OC(c1ccccc1)(c1cccs1)c1ccccc1Cl (centres unmarked)	KCNN4 (Homo sapiens, UniProt O15554)	ion current, inhibitor, patch clamp	–	–	0.75
C[C@H](NC(=O)[C@H](CC(=O)NCC(C)(C)C)NC(=O)C(=O)c1c[nH]c2ccccc12)C(=O)NCc1ccc(F)cc1F	PSMB6/PSMB7 (Homo sapiens, UniProt P28072+Q99436)	inhibitor	–	–	> 100
COc1cc2nccc(Oc3ccc(NC(=S)N4CCC4)c(Cl)c3)c2cc1C(N)=O	KDR	–	–	–	0.0636
CC(C)(C)OC(=O)N1CCC(C(=O)N[C@@H](Cc2ccc3ccccc3c2)C(=O)O)(c2ccc3ccccc3c2)CC1	Gag-Pol polyprotein, integrase (gag-pol, Human immunodeficiency virus 1, UniProt P12497)	integrase catalytic activity, inhibitor, HTRF	HIV-1	with: LEDGF/p75	45
COC(=O)C1=CNC=C(C(=O)OC)C1c1ccc(F)c(C(F)(F)F)c1	KCNN4 (Homo sapiens, UniProt O15554, R352H)	inside-out patch clamp	–	gain-of-function mutant, with: 1 µM free Ca2+	< 0.02
COCCNC(=O)c1cc2c(Oc3ccc(NC(=S)NC4CC4)c(Cl)c3)ccnc2cc1OC	KDR	–	–	–	0.12
COc1ccc(NC(=O)c2cccc(S(=O)(=O)NC3CC3)c2)cc1	Ectonucleoside triphosphate diphosphohydrolase 2 (Homo sapiens, UniProt Q9Y5L3)	enzyme activity, inhibitor, absorbance	–	–	46.9
COc1cc2nccc(Oc3ccc(NC(=S)NC4CCC(F)(F)CC4)c(Cl)c3)c2cc1C(N)=O	KDR	–	–	–	1.65
O=S(=O)(Nc1ccc(Oc2ncccc2-c2ccnc(N[C@H]3CCCNC3)n2)cc1F)c1ccccc1Cl	Serine/threonine-protein kinase/endoribonuclease IRE2, RNase domain (ERN2, Homo sapiens, UniProt Q76MJ5)	RNase activity, inhibitor	–	with: XBP1 mini-substrate	0.12 ± 0.04
CCN(CC)CCNC(=O)c1cc2c(Oc3ccc(NC(=S)NC4CC4)c(Cl)c3)ccnc2cc1OC	KDR	–	–	–	0.156
OCc1ccccc1S[C@@H]1O[C@H](CO)[C@H](O)[C@H](O)[C@H]1O	SLC5A1 (Homo sapiens, UniProt P13866)	transporter uptake, inhibitor, radiometric	–	–	15
COc1cc2nccc(Oc3ccc(NC(=S)Nc4cccnc4)c(Cl)c3)c2cc1C(N)=O	KDR	–	–	–	0.107
C=CC(=O)Nc1cccc(Cn2ncc3cnc(Nc4cnn(CCOC)c4)nc32)c1	TYK2 (Homo sapiens, UniProt P29597)	enzyme activity, inhibitor, TR-FRET	–	–	> 10

Repeated from above:
Compound	target	test	test system	setting	IC50 [µM]
CCCCOC(=O)NS(=O)(=O)c1sc(CC(C)C)cc1-c1ccc(F)c(Cn2ccnc2)c1	AGTR2 (Homo sapiens, UniProt P50052)	ligand displacement in cells	–	–	0.217
C[C@@]12CC[C@@H]3c4ccc(O)c(I)c4CC[C@H]3[C@@H]1CCC2=O	AKR1C3 (Homo sapiens, UniProt P42330)	enzyme activity, inhibitor, absorbance	–	pH 9	12.3
OC(c1ccccc1)(c1cccs1)c1ccccc1Cl (centres unmarked)	KCNN4 (Homo sapiens, UniProt O15554)	ion current, inhibitor, patch clamp	–	–	0.75
